Results collected from several papers.
Each line is one published result; not all experiments were run side by side. ± marks the error that the study gave.
VCP: Transitional endoplasmic reticulum ATPase (VCP, Homo sapiens, UniProt P55072)
UniProt P55072, sequence (whole entry, looked up): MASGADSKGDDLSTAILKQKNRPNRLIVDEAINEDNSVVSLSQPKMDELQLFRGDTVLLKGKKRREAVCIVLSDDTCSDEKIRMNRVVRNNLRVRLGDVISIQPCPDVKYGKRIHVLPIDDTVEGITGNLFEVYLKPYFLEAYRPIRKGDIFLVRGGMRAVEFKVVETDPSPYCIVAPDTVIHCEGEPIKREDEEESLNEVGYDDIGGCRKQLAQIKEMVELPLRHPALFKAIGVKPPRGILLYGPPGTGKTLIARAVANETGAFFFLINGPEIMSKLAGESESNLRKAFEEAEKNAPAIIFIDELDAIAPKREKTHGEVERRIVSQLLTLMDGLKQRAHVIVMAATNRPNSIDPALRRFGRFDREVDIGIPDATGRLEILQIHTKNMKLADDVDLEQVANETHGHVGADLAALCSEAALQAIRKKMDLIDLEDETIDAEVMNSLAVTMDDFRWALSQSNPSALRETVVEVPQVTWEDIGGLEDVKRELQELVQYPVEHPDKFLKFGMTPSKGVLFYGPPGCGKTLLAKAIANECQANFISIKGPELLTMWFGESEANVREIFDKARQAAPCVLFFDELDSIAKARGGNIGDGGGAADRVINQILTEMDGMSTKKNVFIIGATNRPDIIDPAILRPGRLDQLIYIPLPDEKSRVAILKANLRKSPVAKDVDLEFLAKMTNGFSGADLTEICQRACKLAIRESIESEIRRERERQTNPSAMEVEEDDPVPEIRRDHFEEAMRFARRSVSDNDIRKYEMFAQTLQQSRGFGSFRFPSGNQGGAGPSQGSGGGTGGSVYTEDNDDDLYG
IRAK4: Interleukin-1 receptor-associated kinase 4 (IRAK4, Homo sapiens, UniProt Q9NWZ3)
UniProt Q9NWZ3, sequence (whole entry, looked up): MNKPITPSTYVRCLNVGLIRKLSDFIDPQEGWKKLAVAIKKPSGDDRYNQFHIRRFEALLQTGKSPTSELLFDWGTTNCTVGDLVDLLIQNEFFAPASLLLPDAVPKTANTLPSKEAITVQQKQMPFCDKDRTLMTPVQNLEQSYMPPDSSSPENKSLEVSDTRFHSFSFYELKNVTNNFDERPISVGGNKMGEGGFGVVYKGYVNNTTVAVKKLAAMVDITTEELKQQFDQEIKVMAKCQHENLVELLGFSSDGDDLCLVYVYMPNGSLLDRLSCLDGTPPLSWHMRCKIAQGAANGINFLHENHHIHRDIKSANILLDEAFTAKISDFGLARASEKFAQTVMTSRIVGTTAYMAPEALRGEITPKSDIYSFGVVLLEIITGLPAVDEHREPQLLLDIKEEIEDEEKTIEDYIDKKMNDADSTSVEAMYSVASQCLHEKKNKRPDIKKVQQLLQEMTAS
UniProt Q7Z5P4, sequence (whole entry, looked up): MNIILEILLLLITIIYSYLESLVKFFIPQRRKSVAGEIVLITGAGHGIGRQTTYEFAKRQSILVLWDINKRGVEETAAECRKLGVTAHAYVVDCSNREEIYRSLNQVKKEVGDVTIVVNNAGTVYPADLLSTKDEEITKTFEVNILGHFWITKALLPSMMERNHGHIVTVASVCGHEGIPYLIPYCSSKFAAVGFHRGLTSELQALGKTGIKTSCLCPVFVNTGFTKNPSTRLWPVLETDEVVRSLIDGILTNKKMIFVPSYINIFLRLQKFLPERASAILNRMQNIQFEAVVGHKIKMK
UniProt Q9UJS0, sequence (whole entry, looked up): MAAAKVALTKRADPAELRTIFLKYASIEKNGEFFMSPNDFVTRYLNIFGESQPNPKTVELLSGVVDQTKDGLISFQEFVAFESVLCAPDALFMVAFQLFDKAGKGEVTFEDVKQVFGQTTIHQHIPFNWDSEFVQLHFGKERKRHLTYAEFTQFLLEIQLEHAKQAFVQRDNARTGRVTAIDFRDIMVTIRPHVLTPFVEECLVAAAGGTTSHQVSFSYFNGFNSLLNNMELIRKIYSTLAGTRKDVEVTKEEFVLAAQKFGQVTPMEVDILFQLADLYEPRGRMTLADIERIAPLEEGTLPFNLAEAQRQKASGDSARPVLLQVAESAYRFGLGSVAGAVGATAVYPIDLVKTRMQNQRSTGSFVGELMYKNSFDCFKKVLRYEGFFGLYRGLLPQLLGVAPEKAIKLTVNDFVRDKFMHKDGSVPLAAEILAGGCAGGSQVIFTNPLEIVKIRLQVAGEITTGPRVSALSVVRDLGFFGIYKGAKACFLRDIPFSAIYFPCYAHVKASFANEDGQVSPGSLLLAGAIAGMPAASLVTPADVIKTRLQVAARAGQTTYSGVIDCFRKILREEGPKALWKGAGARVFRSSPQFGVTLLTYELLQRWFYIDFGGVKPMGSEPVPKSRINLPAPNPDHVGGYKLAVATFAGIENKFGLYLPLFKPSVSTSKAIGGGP
UniProt P16068, sequence (whole entry, looked up): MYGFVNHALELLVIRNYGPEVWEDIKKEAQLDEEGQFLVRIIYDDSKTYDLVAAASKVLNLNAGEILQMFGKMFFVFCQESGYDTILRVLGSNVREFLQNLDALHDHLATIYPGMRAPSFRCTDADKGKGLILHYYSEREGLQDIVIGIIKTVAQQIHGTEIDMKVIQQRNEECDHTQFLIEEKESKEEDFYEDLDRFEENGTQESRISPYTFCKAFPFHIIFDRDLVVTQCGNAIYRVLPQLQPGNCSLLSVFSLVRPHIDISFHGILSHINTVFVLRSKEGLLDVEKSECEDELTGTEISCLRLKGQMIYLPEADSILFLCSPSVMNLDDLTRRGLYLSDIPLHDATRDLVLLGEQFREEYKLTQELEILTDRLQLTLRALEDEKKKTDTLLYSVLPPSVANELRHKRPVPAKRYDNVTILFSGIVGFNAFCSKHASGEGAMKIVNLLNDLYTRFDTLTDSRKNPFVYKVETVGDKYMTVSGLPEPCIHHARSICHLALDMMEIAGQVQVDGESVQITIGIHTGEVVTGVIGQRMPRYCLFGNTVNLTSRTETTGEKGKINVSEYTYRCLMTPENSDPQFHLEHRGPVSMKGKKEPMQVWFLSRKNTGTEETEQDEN
UniProt Q6B856, sequence (whole entry, looked up): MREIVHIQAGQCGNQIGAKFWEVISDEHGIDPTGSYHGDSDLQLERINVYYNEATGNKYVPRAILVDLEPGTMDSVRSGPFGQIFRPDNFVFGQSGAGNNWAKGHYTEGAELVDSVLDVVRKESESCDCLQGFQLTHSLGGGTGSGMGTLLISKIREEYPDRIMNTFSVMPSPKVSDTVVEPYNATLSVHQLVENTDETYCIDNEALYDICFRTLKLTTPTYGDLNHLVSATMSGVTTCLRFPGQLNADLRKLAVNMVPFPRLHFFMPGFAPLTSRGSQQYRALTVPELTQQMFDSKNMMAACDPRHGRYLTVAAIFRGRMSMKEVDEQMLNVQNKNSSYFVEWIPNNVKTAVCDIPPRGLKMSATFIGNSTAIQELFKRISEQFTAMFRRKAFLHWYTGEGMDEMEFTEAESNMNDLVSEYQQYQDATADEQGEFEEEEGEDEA
UniProt Q13554, sequence (whole entry, looked up): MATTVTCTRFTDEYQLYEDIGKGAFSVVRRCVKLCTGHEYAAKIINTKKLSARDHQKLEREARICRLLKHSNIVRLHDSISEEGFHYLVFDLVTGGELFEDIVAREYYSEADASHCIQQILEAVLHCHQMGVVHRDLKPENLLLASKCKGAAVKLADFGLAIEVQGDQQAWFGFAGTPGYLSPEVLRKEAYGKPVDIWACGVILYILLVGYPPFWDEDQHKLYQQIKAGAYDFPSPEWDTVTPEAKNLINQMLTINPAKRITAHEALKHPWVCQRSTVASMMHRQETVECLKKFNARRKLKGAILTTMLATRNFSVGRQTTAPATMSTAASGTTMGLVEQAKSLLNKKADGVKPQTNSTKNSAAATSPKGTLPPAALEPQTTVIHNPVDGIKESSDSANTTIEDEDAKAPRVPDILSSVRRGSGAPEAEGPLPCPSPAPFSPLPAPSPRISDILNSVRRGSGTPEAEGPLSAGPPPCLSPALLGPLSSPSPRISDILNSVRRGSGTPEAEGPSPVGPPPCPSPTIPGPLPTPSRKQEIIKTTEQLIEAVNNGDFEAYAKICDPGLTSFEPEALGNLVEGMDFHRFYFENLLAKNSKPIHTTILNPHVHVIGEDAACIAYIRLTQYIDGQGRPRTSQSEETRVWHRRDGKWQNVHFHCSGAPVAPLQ
UniProt P81947, sequence (whole entry, looked up): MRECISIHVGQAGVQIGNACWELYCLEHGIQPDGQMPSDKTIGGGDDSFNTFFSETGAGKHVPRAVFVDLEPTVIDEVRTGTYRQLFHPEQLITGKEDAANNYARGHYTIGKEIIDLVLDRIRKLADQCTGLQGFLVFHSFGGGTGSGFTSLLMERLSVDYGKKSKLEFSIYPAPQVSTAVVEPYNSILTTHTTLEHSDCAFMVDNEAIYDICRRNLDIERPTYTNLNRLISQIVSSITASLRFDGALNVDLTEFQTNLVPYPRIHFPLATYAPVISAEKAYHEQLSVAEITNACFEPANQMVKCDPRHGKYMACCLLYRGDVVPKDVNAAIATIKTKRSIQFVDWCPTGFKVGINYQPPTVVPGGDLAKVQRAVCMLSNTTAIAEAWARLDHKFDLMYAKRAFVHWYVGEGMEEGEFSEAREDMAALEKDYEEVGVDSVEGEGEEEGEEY
UniProt P37173, sequence (whole entry, looked up): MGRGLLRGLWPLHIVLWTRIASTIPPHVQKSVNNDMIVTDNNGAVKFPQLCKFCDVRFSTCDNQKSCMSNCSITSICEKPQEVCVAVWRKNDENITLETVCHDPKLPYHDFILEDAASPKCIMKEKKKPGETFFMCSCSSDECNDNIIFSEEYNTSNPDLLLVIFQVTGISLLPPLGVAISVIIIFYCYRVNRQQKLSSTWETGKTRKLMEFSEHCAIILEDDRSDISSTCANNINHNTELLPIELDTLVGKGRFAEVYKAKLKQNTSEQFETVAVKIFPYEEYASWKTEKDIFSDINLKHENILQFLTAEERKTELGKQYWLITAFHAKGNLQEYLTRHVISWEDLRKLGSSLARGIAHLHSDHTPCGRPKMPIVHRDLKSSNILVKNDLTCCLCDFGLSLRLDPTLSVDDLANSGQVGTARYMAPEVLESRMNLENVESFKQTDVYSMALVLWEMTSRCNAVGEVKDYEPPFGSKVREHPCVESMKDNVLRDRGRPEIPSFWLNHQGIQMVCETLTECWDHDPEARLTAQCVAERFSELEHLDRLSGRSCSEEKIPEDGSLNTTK

`COc1cccc2c(NCc3cncs3)nc(N3CCOc4ccccc43)nc12` gave an IC50 of 38000 ± 7000 nM (VCP; enzyme activity, inhibitor).
The IC50 of `Fc1ccc(-c2nc[nH]c2-c2ccncc2)cc1` is reported as 3230 ± 542 nM (TGFBR2 (Homo sapiens, UniProt P37173); inhibitor).
The IC50 of `[Cl-].[Cl-].[Zn+2]` is reported as 510 nM (HVCN1 (Homo sapiens, UniProt Q96D96, E119H); whole-cell voltage clamp; 120 mV, open probability 0.3).
With `C=C(F)C(=O)N1CCN(c2nc(OC[C@@H]3CCCN3C)nc3c2CCN(c2cccc4cccc(Cl)c24)C3)C[C@@H]1CC#N` the IC50 was 747 nM (GTPase NRas (NRAS, Homo sapiens, UniProt P01111, C181S/C186S/G12C)).
The IC50 of `CNC(=O)c1ccccc1Nc1nc(Nc2ccnc(CO)c2)ncc1Cl` is reported as 23.5 ± 2.52 nM (IRAK4; cell-based).
`COc1c(O)c(-c2coc(C)n2)nc(C(=O)O)c1SC` has an IC50 of 326 ± 70 nM (angiotensin-converting enzyme; enzyme activity, inhibitor).
The IC50 of `CC[C@@H]1[C@H](F)C(=O)N[C@@H]1COc1nccc2cc(C(N)=O)c(OC)cc12` is reported as greater than 5000 nM (CAMK2B (Homo sapiens, UniProt Q13554); ATP probe binding, KiNativ profiling, refers to: Lys1 probe site; THP-1 cell lysate).
The IC50 of `C#Cc1cnc(Nc2ccc(CO)nc2)nc1Nc1ccccc1S(C)(=O)=NC#N` (stereo not drawn) is reported as 16.4 ± 2.95 nM (IRAK4; cell-based).
The IC50 of `CN(Cc1ccccc1)c1nc(-c2cccc([N+](=O)[O-])c2)nc2ccccc12` is reported as 25000 ± 11000 nM (VCP; enzyme activity, inhibitor).
With `C[C@H]1O[C@H](O[C@H]2[C@H](O)[C@@H](O)[C@@H](O[C@H]3[C@H](O)[C@@H](O)C(O)O[C@@H]3CO)O[C@@H]2CO)[C@H](O)[C@@H](O)[C@@H]1N[C@H]1C=C(CO)[C@@H](O)[C@H](O)[C@H]1O` (stereo partly drawn) the IC50 was 303 µg/mL (intestinal alpha-glucosidase; enzyme activity, inhibitor; 30 min preincubation, pH 7.5, 37 °C, added: p-nitrophenyl alpha-D-glucopyranoside).
With `Clc1ccc(-c2nc(NCc3ccccc3)c3ccccc3n2)cc1` the IC50 was 5500 ± 1900 nM (VCP; enzyme activity, inhibitor).
`CCCCCCCCCCCC1=C(O)C(=O)C=C(O)C1=O` has an IC50 of roughly 2000 nM (GUCY1B1/GUCY1A1 (Bos taurus, UniProt P16068+P19687); cGMP formation, inhibitor; purified soluble guanylate cyclase, added: DEA/NO stimulated).
`CCOC(F)(F)c1nnc2cnc(-c3cnc(OCC(F)(F)F)c(F)c3)cn12` has an IC50 of 137 nM (uncharacterized protein (Canis lupus familiaris, UniProt A0A8I3NWP9); persistent sodium current, inhibitor, patch clamp; added: ATX-II).
`Cn1cc2c(C(=O)O)ccc(NS(=O)(=O)c3ccc(OCC4CCC4)c(Cl)c3)c2n1` gave an IC50 of 75 nM (17-beta-hydroxysteroid dehydrogenase 13 (Homo sapiens, UniProt Q7Z5P4); inhibitor; Huh-7 overexpressing target; 3 h).
The IC50 of `Cc1cccc(-c2nc(NCc3ccccc3)c3ccccc3n2)c1` is reported as 4200 ± 200 nM (VCP; enzyme activity, inhibitor).
The IC50 of `Cc1ccc(C(=O)Nc2ccc(S(=O)(=O)O)c3cc(S(=O)(=O)O)cc(S(=O)(=O)O)c23)cc1NC(=O)c1cccc(NC(=O)Nc2cccc(C(=O)Nc3cc(C(=O)Nc4ccc(S(=O)(=O)O)c5cc(S(=O)(=O)O)cc(S(=O)(=O)O)c45)ccc3C)c2)c1` is reported as 1370 ± 110 nM (SLC25A13 (Homo sapiens, UniProt Q9UJS0); aspartate/glutamate exchange; proteoliposomes; 1 min, added: [14C]Asp 1 mM, Glu 20 mM inside).
`CC(Nc1nc(N2CCOCC2)nc2ccccc12)c1ccccc1` (stereo not drawn) gave an IC50 of 34000 ± 10000 nM (VCP; enzyme activity, inhibitor).
`COc1cc(C(=O)c2c[nH]c3cc(-c4ccc(C(C)=O)s4)ccc23)cc(OC)c1OC` has an IC50 of greater than 20000 nM (Tubulin alpha-1B chain/TUBB2B (Bos taurus, UniProt P81947+Q6B856); tubulin polymerization, inhibitor, turbidimetric; added: 10 µM bovine tubulin).

For quick reference, copied from above:
The IC50 of `CNC(=O)c1ccccc1Nc1nc(Nc2ccnc(CO)c2)ncc1Cl` is reported as 23.5 ± 2.52 nM (IRAK4; cell-based).
`COc1c(O)c(-c2coc(C)n2)nc(C(=O)O)c1SC` has an IC50 of 326 ± 70 nM (angiotensin-converting enzyme; enzyme activity, inhibitor).
